Published values pooled from the literature.
Numbered parts are unrelated; each lists some results of a single study. “And” joins repeats or separate records; there may be more than shown.
UniProt P23975, sequence (whole entry, looked up): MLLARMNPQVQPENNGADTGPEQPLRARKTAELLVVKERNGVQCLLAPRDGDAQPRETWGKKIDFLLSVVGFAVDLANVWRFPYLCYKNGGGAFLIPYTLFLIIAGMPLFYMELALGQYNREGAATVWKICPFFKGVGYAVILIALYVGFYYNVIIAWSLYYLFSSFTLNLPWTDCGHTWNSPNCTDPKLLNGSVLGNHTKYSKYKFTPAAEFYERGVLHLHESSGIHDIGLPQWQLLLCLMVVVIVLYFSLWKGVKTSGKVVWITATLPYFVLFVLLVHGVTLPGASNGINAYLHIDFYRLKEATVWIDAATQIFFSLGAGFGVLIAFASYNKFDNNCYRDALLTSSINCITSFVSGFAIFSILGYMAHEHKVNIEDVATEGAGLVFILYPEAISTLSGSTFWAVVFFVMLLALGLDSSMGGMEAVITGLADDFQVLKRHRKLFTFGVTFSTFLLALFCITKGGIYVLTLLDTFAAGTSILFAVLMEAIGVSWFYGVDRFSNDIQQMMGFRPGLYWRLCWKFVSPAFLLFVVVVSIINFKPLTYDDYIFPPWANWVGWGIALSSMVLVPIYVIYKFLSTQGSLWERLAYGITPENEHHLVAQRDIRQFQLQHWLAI

Block 1
Target: DNA polymerase theta, ATPase domain (POLQ, Homo sapiens, UniProt O75417)
UniProt O75417, sequence (whole entry, unmodified, looked up): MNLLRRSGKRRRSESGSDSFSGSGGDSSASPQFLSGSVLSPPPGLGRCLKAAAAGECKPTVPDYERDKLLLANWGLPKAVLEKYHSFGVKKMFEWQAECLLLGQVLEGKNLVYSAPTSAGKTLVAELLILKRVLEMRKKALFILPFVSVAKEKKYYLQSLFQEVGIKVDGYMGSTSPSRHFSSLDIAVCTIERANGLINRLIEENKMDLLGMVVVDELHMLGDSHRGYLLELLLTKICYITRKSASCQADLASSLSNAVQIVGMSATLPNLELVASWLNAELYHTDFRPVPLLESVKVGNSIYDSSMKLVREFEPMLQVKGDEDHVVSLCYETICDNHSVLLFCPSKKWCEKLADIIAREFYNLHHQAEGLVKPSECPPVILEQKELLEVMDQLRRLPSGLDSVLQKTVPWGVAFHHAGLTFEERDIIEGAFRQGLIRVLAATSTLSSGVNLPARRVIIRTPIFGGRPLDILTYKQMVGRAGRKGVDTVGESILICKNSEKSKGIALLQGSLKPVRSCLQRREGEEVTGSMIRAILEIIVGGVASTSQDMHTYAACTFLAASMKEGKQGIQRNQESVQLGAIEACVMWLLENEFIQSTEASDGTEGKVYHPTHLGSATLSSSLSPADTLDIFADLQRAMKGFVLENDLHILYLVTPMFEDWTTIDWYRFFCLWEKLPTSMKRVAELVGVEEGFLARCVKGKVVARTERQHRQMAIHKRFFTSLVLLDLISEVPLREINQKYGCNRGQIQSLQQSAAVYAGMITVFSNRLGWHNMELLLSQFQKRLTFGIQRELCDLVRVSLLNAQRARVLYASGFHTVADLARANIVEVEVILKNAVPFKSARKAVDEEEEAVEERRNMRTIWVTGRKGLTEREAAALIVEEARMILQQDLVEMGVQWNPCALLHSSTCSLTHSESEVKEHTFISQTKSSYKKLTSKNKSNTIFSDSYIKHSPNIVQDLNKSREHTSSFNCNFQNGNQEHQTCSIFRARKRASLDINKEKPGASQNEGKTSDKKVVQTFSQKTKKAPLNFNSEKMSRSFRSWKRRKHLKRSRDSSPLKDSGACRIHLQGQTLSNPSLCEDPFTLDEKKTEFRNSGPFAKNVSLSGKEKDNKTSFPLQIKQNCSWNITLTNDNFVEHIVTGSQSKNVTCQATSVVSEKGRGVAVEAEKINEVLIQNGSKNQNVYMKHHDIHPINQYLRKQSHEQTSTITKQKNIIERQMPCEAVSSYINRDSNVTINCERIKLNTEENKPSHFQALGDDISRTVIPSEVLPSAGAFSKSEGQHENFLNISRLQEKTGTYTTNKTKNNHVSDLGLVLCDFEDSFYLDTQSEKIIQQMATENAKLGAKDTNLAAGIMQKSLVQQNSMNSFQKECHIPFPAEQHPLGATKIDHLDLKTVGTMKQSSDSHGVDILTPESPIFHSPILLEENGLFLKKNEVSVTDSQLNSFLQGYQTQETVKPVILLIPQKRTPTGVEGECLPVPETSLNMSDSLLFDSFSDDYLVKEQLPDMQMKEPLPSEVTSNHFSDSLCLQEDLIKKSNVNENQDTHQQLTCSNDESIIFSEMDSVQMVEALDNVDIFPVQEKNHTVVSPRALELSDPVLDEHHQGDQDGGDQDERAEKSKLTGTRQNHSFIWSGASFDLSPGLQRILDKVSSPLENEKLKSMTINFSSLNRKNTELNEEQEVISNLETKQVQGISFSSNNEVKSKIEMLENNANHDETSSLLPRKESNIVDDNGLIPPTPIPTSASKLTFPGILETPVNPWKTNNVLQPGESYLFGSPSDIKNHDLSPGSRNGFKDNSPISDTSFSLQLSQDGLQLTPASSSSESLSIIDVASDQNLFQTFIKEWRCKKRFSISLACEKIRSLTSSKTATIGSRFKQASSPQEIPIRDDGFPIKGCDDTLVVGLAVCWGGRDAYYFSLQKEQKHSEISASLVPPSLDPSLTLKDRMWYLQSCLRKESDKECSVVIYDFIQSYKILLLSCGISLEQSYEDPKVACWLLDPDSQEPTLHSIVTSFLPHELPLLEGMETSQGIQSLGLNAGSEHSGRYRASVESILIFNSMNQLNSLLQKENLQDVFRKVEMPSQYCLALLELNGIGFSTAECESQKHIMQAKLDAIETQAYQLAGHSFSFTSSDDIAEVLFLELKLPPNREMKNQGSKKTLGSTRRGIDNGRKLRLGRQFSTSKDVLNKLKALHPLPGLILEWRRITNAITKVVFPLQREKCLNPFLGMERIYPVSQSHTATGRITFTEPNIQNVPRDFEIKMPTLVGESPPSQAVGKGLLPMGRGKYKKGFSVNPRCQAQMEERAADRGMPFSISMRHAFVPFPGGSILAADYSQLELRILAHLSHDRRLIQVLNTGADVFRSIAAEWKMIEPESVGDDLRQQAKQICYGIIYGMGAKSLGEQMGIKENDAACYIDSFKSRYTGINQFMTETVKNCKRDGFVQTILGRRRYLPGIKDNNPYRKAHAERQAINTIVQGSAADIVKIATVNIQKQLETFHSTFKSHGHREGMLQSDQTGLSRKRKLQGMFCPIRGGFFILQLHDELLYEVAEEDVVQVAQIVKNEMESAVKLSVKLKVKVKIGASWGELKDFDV
Effect on: enzyme activity
Mode: inhibitor
Concentration: 77 µM
Relative to: untreated
Endpoint: remaining activity
CCCCCCCCCCCCCC(=O)O[C@@H]1[C@@H](C)[C@@]2(O)[C@@H](C=C(CO)C[C@]3(O)C(=O)C(C)=C[C@@H]23)[C@@H]2C(C)(C)[C@]12OC(C)=O: 90.8%
CC[C@@H](CO)NC(=O)[C@@H]1C=C2c3cccc4c3c(cn4C)C[C@H]2N(C)C1: 99.7%
CCN1C[C@]2(COC)CC[C@H](O)[C@]34C1C(C[C@H]23)[C@@]1(O)C[C@H](OC)[C@H]2C[C@@H]4[C@@H]1[C@H]2OC(C)=O: 100%
O=C1C=CC(=O)C=C1: 99.5%
O=[N+]([O-])c1ncc[nH]1: 95.9%

Block 2
SMILES: O=C1CCC(N2Cc3c(ccc4c3OCC43CCN(Cc4ccccc4)CC3)C2=O)C(=O)N1 (stereo not shown)
Endpoint: inhibition
KCNH2: Voltage-gated inwardly rectifying potassium channel KCNH2 (KCNH2, Homo sapiens, UniProt Q12809)
UniProt Q12809, sequence (whole entry, looked up): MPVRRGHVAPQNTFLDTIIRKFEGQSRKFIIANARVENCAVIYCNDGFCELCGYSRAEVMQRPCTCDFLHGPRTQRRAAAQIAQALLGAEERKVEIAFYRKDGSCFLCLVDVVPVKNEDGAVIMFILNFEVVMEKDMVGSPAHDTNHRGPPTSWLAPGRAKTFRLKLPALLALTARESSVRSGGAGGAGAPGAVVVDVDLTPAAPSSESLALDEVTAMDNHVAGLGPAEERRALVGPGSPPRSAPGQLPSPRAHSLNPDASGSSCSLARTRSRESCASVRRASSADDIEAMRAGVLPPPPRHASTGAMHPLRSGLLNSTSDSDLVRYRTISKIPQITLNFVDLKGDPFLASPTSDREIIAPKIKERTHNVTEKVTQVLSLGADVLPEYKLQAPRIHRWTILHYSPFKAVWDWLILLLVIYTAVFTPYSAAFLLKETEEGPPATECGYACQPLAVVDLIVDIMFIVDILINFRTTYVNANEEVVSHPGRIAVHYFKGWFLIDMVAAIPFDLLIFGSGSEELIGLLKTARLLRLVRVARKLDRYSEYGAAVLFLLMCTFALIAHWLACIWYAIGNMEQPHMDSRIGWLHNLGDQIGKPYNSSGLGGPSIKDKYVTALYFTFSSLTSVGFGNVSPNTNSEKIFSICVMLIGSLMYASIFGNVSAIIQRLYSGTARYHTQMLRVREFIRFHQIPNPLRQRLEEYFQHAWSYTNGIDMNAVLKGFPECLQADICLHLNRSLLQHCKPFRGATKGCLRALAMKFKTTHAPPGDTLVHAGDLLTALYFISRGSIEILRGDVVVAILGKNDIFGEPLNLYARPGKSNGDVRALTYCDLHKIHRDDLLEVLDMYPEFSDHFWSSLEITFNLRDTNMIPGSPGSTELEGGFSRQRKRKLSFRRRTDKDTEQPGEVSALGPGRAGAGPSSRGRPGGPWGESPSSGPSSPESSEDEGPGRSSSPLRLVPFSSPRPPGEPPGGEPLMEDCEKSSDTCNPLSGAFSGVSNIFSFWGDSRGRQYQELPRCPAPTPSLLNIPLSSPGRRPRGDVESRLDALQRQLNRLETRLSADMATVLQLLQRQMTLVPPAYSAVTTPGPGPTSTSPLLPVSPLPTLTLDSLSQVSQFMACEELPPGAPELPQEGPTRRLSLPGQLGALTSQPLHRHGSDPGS
CRBN: Protein cereblon (CRBN, Homo sapiens, UniProt Q96SW2)
UniProt Q96SW2, sequence (whole entry, looked up): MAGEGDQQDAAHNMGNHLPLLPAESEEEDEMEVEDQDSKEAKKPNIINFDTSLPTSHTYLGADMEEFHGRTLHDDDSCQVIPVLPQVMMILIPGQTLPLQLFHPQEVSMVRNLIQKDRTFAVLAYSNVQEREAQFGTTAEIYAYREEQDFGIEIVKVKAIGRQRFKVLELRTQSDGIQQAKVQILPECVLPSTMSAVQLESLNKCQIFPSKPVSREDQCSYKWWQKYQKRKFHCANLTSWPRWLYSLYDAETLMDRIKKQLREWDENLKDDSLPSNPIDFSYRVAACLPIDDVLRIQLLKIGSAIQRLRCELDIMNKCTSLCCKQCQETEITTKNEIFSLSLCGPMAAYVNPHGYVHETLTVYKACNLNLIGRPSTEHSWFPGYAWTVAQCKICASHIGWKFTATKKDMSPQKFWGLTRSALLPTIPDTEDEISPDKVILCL
KCNH2; hERG current, patch clamp; HEK293 expressing hERG; 0.1 µM: 76.4%
CRBN; cell-free assay, TR-FRET; 1.52 µM: 0.7% and 2.6%
CRBN; cell-free assay, TR-FRET; 370.4 µM: 81.6%
KCNH2; hERG current, voltage clamp; HEK293 stably expressing hERG; 0.001 µM: -0.07% and 0.08% and 1.67%
CRBN; cell-free assay, TR-FRET; 0.51 µM: 0.9% and 2.9%
CRBN; cell-free assay, TR-FRET; 13.72 µM: 30.1%
KCNH2; hERG current, voltage clamp; HEK293 stably expressing hERG; 0.1 µM: 76.8% and 83.7% and 76%
KCNH2; hERG current, patch clamp; HEK293 expressing hERG; 1 µM: 84.9%

Block 3
SMILES: O=C(O)[C@H]1[C@H](Cn2nnc3ccccc3c2=O)CC[C@@H]1C(=O)c1ccc(OCCC2CCOCC2)cc1
Effect on: ligand displacement
Concentration: 10 µM
Endpoint: inhibition
D(1B) dopamine receptor (DRD5, Homo sapiens, UniProt P21918): 7.53%
Delta-type opioid receptor (OPRD1, Homo sapiens, UniProt P41143): 1.43%
Sodium-dependent serotonin transporter (SLC6A4, Homo sapiens, UniProt P31645): 13.9%
Mu-type opioid receptor (OPRM1, Homo sapiens, UniProt P35372): -9.72%
Sodium-dependent noradrenaline transporter (SLC6A2, Homo sapiens, UniProt P23975): -4.82%

Single results of other studies
COc1ccc(-c2c(Nc3ccccn3)[nH]c3c(C4=CCCCC4)c(-c4ccccc4)nn3c2=O)cc1
decreased appetite incidence (patients with advanced malignancies; oral, dose not given, treatment-emergent adverse events): 20%
